Results gathered from unrelated publications.
Protocols differ between the studies behind these lines. Several values in a cell are separate wells, animals, samples, runs or records. ± gives the spread as reported.
CAMK1D: Calcium/calmodulin-dependent protein kinase type 1D (CAMK1D, Homo sapiens, UniProt Q8IU85)
Sequence of UniProt Q9EPB5 (whole entry, looked up): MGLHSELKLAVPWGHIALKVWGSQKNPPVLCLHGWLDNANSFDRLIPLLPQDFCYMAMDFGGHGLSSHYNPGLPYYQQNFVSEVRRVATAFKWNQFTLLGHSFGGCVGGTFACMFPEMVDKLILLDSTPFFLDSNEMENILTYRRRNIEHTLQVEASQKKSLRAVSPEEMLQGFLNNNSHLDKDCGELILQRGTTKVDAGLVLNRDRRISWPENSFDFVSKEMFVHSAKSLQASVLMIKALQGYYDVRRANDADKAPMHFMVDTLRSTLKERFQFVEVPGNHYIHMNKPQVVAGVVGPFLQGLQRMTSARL
Sequence of UniProt Q5XJY4 (whole entry, looked up): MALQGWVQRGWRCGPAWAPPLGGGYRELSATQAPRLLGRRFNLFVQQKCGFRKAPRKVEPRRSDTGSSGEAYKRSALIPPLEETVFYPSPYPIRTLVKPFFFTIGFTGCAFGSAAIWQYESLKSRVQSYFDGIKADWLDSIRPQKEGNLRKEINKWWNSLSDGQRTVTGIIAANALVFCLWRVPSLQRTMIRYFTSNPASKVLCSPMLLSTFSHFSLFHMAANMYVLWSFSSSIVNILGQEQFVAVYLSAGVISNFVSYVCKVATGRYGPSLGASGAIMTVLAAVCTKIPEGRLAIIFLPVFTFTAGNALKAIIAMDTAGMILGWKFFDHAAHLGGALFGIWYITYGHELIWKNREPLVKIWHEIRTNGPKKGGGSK
Sequence of UniProt Q8IU85 (whole entry, looked up): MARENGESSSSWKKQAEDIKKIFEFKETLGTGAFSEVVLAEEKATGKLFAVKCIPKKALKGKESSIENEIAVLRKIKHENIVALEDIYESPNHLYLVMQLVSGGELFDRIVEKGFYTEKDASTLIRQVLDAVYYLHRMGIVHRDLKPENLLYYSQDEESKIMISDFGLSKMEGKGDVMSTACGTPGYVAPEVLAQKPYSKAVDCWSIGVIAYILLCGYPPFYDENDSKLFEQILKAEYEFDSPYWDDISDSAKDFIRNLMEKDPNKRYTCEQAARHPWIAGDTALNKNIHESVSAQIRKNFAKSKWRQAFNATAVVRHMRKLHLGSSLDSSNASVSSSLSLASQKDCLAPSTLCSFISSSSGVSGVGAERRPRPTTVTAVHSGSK
Sequence of UniProt Q9ULC6 (whole entry, looked up): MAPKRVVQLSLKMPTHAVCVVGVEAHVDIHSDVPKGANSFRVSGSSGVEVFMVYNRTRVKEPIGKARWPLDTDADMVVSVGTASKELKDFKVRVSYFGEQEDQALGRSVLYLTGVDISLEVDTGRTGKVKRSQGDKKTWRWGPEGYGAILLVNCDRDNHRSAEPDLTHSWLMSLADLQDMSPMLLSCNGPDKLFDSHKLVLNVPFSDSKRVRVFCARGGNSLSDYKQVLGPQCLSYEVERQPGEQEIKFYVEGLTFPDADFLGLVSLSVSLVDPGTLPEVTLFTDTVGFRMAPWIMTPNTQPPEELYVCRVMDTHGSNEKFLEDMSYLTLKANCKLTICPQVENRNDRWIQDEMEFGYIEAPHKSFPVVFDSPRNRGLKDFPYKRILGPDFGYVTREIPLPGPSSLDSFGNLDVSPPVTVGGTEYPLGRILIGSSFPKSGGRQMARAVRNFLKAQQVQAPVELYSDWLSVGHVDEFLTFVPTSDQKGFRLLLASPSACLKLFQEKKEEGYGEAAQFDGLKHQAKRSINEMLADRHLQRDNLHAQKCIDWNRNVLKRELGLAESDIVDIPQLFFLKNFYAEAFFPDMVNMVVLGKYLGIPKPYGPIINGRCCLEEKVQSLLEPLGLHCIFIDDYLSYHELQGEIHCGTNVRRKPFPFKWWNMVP
Sequence of UniProt Q6DWJ6 (whole entry, looked up): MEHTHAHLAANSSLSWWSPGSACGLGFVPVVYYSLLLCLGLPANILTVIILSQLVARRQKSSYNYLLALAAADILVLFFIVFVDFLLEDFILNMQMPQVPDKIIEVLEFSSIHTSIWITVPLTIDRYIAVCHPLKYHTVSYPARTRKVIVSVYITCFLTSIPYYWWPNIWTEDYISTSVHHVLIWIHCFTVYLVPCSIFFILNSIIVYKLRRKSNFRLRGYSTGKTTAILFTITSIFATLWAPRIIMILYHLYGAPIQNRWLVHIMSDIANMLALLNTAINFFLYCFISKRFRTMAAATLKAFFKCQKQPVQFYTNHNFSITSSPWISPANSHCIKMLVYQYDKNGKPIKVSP
Sequence of UniProt P28223 (whole entry, looked up): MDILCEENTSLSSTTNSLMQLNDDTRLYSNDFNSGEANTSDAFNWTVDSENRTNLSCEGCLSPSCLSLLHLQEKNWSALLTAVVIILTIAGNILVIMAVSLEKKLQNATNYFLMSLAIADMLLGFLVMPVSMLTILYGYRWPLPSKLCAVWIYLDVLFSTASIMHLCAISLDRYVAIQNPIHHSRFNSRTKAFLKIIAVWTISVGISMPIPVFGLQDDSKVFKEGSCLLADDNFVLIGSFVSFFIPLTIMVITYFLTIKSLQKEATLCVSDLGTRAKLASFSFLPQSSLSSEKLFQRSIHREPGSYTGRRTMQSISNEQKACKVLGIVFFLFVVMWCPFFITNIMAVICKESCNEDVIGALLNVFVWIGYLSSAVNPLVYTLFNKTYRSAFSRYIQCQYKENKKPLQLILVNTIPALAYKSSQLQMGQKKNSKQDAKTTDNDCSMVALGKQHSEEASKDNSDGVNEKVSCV
Sequence of UniProt Q9Y6R4 (whole entry, looked up): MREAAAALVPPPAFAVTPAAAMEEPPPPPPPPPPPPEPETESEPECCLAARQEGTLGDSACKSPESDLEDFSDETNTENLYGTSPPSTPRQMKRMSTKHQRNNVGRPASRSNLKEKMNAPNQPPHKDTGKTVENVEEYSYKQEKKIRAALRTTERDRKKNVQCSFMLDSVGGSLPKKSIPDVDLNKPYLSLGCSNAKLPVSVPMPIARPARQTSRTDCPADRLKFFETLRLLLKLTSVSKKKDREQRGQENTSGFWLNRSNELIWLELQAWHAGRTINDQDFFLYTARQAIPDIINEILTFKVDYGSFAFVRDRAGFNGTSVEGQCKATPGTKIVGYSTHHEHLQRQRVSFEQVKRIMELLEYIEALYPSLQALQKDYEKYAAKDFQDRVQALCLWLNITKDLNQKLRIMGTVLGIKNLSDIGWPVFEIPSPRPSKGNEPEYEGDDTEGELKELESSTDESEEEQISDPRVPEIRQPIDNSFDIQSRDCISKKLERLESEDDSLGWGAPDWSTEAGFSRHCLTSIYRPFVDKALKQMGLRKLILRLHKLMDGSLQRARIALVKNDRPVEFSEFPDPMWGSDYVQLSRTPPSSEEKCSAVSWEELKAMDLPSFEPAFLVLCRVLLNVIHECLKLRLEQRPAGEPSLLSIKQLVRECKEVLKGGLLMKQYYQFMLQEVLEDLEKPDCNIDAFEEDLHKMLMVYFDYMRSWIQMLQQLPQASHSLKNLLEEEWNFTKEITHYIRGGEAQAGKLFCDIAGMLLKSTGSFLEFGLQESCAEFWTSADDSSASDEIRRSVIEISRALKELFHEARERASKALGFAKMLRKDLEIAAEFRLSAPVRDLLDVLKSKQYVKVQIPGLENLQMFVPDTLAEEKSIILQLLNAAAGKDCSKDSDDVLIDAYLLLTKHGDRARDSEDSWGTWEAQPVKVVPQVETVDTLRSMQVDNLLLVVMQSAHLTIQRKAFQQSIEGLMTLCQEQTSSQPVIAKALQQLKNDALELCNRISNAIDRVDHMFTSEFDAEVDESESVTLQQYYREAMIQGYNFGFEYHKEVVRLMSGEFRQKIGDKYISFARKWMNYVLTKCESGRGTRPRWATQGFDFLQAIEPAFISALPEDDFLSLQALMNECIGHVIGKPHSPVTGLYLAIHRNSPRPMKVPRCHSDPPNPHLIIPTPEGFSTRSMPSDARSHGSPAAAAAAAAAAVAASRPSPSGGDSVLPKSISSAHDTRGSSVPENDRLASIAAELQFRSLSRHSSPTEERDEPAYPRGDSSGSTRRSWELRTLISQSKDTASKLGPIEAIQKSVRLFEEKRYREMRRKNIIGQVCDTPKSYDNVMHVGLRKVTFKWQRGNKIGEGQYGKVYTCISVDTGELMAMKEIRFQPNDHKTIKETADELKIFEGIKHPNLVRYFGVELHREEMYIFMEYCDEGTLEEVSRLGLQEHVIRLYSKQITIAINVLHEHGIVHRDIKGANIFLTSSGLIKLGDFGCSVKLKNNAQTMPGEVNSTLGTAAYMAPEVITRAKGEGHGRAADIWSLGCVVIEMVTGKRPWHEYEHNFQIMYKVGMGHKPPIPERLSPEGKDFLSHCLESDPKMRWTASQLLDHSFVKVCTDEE
Sequence of UniProt P0A988 (whole entry, unmodified, looked up): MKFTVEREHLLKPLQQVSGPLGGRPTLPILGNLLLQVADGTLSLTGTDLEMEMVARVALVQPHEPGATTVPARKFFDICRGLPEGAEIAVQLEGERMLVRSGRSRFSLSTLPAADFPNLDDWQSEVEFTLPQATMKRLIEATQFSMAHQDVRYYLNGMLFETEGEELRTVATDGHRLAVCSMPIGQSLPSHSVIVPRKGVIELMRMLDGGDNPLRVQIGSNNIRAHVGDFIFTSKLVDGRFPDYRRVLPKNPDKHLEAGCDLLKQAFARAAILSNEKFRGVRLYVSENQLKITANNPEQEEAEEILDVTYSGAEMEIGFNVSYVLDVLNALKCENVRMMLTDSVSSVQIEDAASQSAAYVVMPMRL
Sequence of UniProt O43570 (whole entry, looked up): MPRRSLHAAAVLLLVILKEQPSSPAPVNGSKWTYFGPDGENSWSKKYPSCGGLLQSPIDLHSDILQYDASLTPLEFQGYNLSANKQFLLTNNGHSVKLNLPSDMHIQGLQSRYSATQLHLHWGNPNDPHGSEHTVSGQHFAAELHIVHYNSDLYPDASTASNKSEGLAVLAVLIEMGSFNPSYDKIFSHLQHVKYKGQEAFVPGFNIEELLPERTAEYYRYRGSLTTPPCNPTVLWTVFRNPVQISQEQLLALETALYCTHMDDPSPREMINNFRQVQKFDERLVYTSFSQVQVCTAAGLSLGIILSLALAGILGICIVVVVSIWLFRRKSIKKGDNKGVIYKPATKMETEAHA

Cc1cc(C(=O)Nc2nc3cccc(C)c3n2[C@H]2CCCCN(C(=O)/C=C/CN(C)C)C2)ccn1
survival (Trypanosoma brucei brucei; 2T1 CLK1 C215S overexpressing; 0.09259 µM, 72 h): 102% and 105% and 96.2% and 94.3% and 90.7%

CCOC(=O)[C@@H]1Cc2c(cc([N+](=O)[O-])cc2[N+](=O)[O-])[C@H](O)[C@]12C(=O)Nc1ccc(Br)cc12
remaining binding (BMPR2 (Homo sapiens, UniProt Q13873); KINOMEscan; 100 nM; reference: DMSO control): 100%

COc1ccccc1-c1n[nH]c2nc(N[C@H]3CC[C@H](NS(=O)(=O)CC(C)C)CC3)ncc12
relative abundance (bead binding, competition bead pull-down, measured: LINJ.23.0050; Leishmania donovani extract; 10 µM; reference: vehicle): 0.92

CC[C@H](C)[C@H](NC(=O)[C@H](CCCNC(=N)N)NC(=O)[C@H](CCCNC(=N)N)NC(=O)[C@H](CC(C)C)NC(=O)[C@H](Cc1ccccc1)NC(=O)CNC(=O)CNC(=O)[C@@H](N)Cc1ccc(O)cc1)C(=O)N[C@@H](CCCNC(=N)N)C(=O)N1CCC[C@H]1C(=O)N[C@@H](CCCCN)C(=O)N[C@@H](CC(C)C)C(=O)N[C@@H](CCCCN)C(=O)O
Emax (GPR139 (Homo sapiens, UniProt Q6DWJ6); Gαolf activation, agonist, BRET; HEK293T/17; 40 µM): 10.8% and 9.01%

CC(C)[C@H]1NC(=O)C[C@H]2/C=C/CCSSC[C@@H](NC1=O)C(=O)N[C@H](Cc1cccc3ccccc13)C(=O)NCC(=O)O2
inhibition (PKN1 (Homo sapiens, UniProt Q16512); enzyme activity, inhibitor; 10 µM): 9.1%

CC[C@H](C)[C@H](NC(=O)[C@H](CCCCN)NC(=O)CNC(=O)[C@H](CC(C)C)NC(=O)[C@H](Cc1ccccc1)NC(=O)[C@H](CCCCN)NC(=O)[C@H](CO)NC(=O)[C@H](Cc1ccccc1)NC(=O)[C@H](Cc1c[nH]c2ccccc12)NC(=O)[C@H](CCC(N)=O)NC(=O)[C@@H](NC(=O)[C@H](Cc1ccccc1)NC(=O)CCCCCNC(=O)CN1CCN(CC(=O)O)CCN(CC(=O)O)CCN(CC(=O)O)CC1)C(C)C)C(=O)N[C@@H](CCC(=O)O)C(=O)N1CCC[C@H]1C(=O)N[C@@H](CC(=O)O)C(=O)N[C@H](C(=O)N[C@@H](CO)C(=O)N[C@@H](CCC(N)=O)C(=O)N[C@H](C(=O)N[C@@H](CCC(N)=O)C(=O)N[C@@H](CC(=O)O)C(=O)N1CCC[C@H]1C(=O)N[C@@H](CC(N)=O)C(=O)N[C@@H](CC(=O)O)C(=O)N[C@@H](CCC(N)=O)C(=O)N[C@@H](Cc1ccc(O)cc1)C(=O)N[C@@H](CCC(=O)O)C(=O)N1CCC[C@H]1C(=O)N[C@@H](Cc1ccccc1)C(=O)O)C(C)C)C(C)C [copper-64 labelled]
tissue uptake (GZMB-/- mouse bearing CT26 tumour, lung; dose not given, 2 h, vehicle-treated): 2.62 ± 0.4 %ID/g

CCCCC/C=C\C/C=C\C/C=C\C/C=C\CCCC(=O)NCCc1ccc(O)c(O)c1
Hill coefficient (Trpv1 (Mus musculus, UniProt Q704Y3, T551V); ion current, agonist, whole-cell patch clamp; T551V): 1.64 ± 0.46

N[C@H](C(=O)N1CCCC1)C1CCN(c2nccc3c(-c4ncc(Cl)cc4Cl)cccc23)CC1
kcat (PADI1 (Homo sapiens, UniProt Q9ULC6); enzyme activity; 0.006291 µM, added: Ca2+ 0.25 mM): 0.409 s⁻¹ and 0.414 s⁻¹

CCC1(CC)C(=O)N(c2cccc(CN3CCc4cc5c(cc4C3)OCO5)c2)C1=O
selectivity ratio (Dipeptidyl peptidase 8 (Homo sapiens, UniProt Q6V1X1); inhibitor; added: GP-AMC substrate; reference: Ki' DPP9 over Ki' DPP8): 4

COCC1CCCCN1C(=O)n1cc(C(O)(c2ccccc2)c2ccccc2)nn1 (stereo not shown)
SILAC ratio (Serine hydrolase-like protein (Serhl, Mus musculus, UniProt Q9EPB5); probe labelling, inhibitor, competitive ABPP-SILAC, measured: Serhl; mouse T cells; concentration not given, 4 h, in situ, single peptide; reference: treated over DMSO, lower = more inhibition): 1.42 and 1.94 and 1.36 and 1.56 and 1.47 and 1.46 and 1.12 and 1.48

Cc1cc(Oc2nc(N3CC[C@@H](c4ccncc4)C3)ncc2F)[nH]n1
IC50 (skin cancer cell lines; cell proliferation; average over lines): 56.2 µM

CN(C)[C@H]1C[C@@]23CC[C@@]4(O2)C(=CC[C@]2(C)[C@@H](c5ccc6ccncc6c5)CC[C@H]24)C=C3[C@@H](O)[C@@H]1O
inhibition (CAMK1D; ATP probe labelling, inhibitor, KiNativ profiling; 1 µM): 1%

CC[C@H](C)[C@H](NC(=O)[C@H](CO)NC(=O)[C@H](Cc1ccc(O)cc1)NC(=O)[C@H](Cc1ccc(O)cc1)NC(=O)[C@H](CC(N)=O)NC(=O)CNC(=O)[C@H](CO)NC(=O)[C@H](Cc1ccc(O)cc1)NC(=O)[C@H](CO)NC(=O)[C@H](CO)NC(=O)[C@H](CC(N)=O)NC(=O)COCCOCCNC(=O)CN1CCN(CC(=O)O)CCN(CC(=O)O)CCN(CC(=O)O)CC1)C(=O)N[C@@H](CC(C)C)C(N)=O [copper-64 labelled]
tumour uptake (dynamic PET; mouse, tamoxifen-induced PDAC, blood; intravenous, 0.1 µg/mouse, 4.5 min): 10.4 %ID/mL

Cc1cc(-c2ccc3ccccc3c2)nnc1NCCN1CCN(C)CC1
antagonist activity (HTR2A (Homo sapiens, UniProt P28223); antagonist; concentration not given): negative

CCN1CCN(C2CCN(C(=O)COc3ccc(-c4ccc(OC)cc4)cc3)CC2)CC1
IC50 (uncharacterized protein (Anopheles gambiae, UniProt Q7QFG0); enzyme activity, inhibitor, Ellman; up to 1000 µM, pH 7.4, 30 °C, added: 1 mM acetylthiocholine): inactive

CC(C)(C)C(=O)OCOP(=O)(OCOC(=O)C(C)(C)C)C1CCCN(O)C1=O (stereo not shown)
log LC50 (UACC-62): > -4 log M

O=C1NC(=O)c2c1c1cc(F)c[n+]3c1c1c2c2cc(O)ccc2[n]1[Ru-4]312([N]=C=S)[S+]3CC[S+]1CC[S+]2CC3 (stereo not shown)
remaining activity (CK1 (yeast); kinase activity, inhibitor; 100 nM, added: 10 µM ATP): 3%

COc1ccccc1-c1n[nH]c2nc(NC3CCN(C(=O)Cc4ccc(F)cc4F)CC3)ncc12
relative abundance (bead binding, competition bead pull-down, measured: LINJ.23.0310; Leishmania donovani extract; 10 µM; reference: vehicle): 1.09

C[C@H](NCc1ccc(-c2ccc(C(F)(F)F)cc2)cc1)C(N)=O
inhibition (BDKRB2 (Homo sapiens, UniProt P30411); radioligand binding, SafetyScreen panel; 1 µM, species human, added: 0.50 nM [3H]Bradykinin): -2%

CS(C)(=O)=Nc1ccc(-c2ccc(-c3nc4cc(O[C@@H]5CO[C@H]6[C@@H]5OC[C@H]6O)[nH]c4cc3F)cc2)cc1
inhibition (CAMK1D; enzyme activity, inhibitor; 10 µM): -13%

CC(=O)N[C@@H](CCC(N)=O)C(=O)N[C@@H](CC1CCCCC1)C(=O)N[C@@H](CNC(=O)CCl)C(=O)N[C@@H](CC(C)C)C(=O)N[C@@H](Cc1ccccc1)C(=O)O
-TΔS (Beta sliding clamp (Escherichia coli, UniProt P0A988); binding, isothermal titration calorimetry; 37 °C): 2.3 kcal/mol

Nc1ccc(/C=C/C(=O)N2CCc3c(oc4c(-c5ccc(F)cc5)cc(-c5ccc(C(=O)N6CCC(F)(F)CC6)cn5)cc34)C2)cn1
remaining binding (MAP3K4 (Homo sapiens, UniProt Q9Y6R4); binding, competition with immobilised ligand; 1 µM): 100%

CC(C)C[C@H](NC(=O)[C@H](CCCNC(=N)N)NC(=O)[C@H](Cc1ccccc1)NC(=O)[C@H](Cc1ccccc1)NC(=O)[C@@H](NC(=O)[C@H](CO)NC(=O)[C@H](CC(C)C)NC(=O)[C@@H](N)CO)[C@@H](C)O)C(=O)N[C@@H](Cc1ccccc1)C(=O)N[C@@H](CC(N)=O)C(=O)N[C@@H](CCCNC(=N)N)C(=O)N[C@@H](CO)C(=O)N[C@@H](Cc1ccccc1)C(=O)N[C@H](C(=O)N(C)[C@@H](CCC(N)=O)C(=O)N[C@@H](C)C(=O)O)[C@@H](C)O
activation (Histidine kinase ComD (Streptococcus mutans serotype c, UniProt Q8DS94); Streptococcus mutans; 10 µM): 100%

O=C1NC2(CC2)COc2ncc(F)cc2[C@H]2COCCN2c2ccn3ncc1c3n2
serum triglycerides (Sprague-Dawley rat, male, serum; oral, 2.5 mg/kg/day, end of recovery, 4-week subacute toxicity): 0.54 ± 0.21 mmol/L

OC1Cc2ccccc2CC1N1CCC2(C=Cc3cc(Br)ccc32)CC1 (racemic)
selectivity ratio (Vesicular acetylcholine transporter (Rattus norvegicus, UniProt Q62666); rat liver (sigma2); reference: Ki sigma2 over Ki VAChT): 35

CC(C)CC(O)(CC(C)C)c1cn(C(=O)N2CCCC2)nn1
SILAC ratio (Presenilin-associated rhomboid-like protein, mitochondrial (Parl, Mus musculus, UniProt Q5XJY4); probe labelling, inhibitor, competitive ABPP-SILAC, measured: Parl; mouse T cells; concentration not given, 4 h, in situ, single peptide; reference: treated over DMSO, lower = more inhibition): 1.26 and 1.3 and 1.33 and 0.78 and 1.45 and 1.25 and 1.35 and 1.27

Cc1c(Cl)c(=O)oc2cc(OCCCCCC[Se]C#N)ccc12
selectivity ratio (CA12 (Homo sapiens, UniProt O43570); stopped-flow CO2 hydration; reference: Ki CA II over Ki CA XII): > 1110

C#CCCCCOc1ccc2c(c1)CCCN2C(=O)CCl
reactivity ratio (AP3B1 (Homo sapiens, UniProt O00203); mass spectrometry profiling; H460 cell lysate; 100 µM over 10 µM, UniProt O00203; reference: high over low concentration): 1.24

For quick reference, copied from above:
OC1Cc2ccccc2CC1N1CCC2(C=Cc3cc(Br)ccc32)CC1 (racemic)
selectivity ratio (Vesicular acetylcholine transporter (Rattus norvegicus, UniProt Q62666); rat liver (sigma2); reference: Ki sigma2 over Ki VAChT): 35

CC(C)CC(O)(CC(C)C)c1cn(C(=O)N2CCCC2)nn1
SILAC ratio (Presenilin-associated rhomboid-like protein, mitochondrial (Parl, Mus musculus, UniProt Q5XJY4); probe labelling, inhibitor, competitive ABPP-SILAC, measured: Parl; mouse T cells; concentration not given, 4 h, in situ, single peptide; reference: treated over DMSO, lower = more inhibition): 1.26 and 1.3 and 1.33 and 0.78 and 1.45 and 1.25 and 1.35 and 1.27

O=C1NC(=O)c2c1c1cc(F)c[n+]3c1c1c2c2cc(O)ccc2[n]1[Ru-4]312([N]=C=S)[S+]3CC[S+]1CC[S+]2CC3 (stereo not shown)
remaining activity (CK1 (yeast); kinase activity, inhibitor; 100 nM, added: 10 µM ATP): 3%
